Results from different studies.
Each numbered part is a random draw from the data of one study; scales do not carry over between parts. Positions count from the first letter of the parent shown.

Set 1
Target: ABI1, truncated, D143A, DHFR fusion (Arabidopsis thaliana)
Technique: DHFR PCA, deep sequencing
Medium: yeast
Setting: methotrexate growth selection, single substitutions
Added: (+)-ABA 200 µM
Baseline: wild-type fitted maximum
Direction: higher = stronger binding
Starting sequence: PYL1, truncated, DHFR fusion (Arabidopsis thaliana); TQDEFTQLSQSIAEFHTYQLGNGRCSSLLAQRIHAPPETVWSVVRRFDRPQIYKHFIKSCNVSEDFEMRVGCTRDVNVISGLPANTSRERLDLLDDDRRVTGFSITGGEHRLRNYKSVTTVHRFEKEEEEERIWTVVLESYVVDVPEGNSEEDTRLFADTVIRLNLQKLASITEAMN; partner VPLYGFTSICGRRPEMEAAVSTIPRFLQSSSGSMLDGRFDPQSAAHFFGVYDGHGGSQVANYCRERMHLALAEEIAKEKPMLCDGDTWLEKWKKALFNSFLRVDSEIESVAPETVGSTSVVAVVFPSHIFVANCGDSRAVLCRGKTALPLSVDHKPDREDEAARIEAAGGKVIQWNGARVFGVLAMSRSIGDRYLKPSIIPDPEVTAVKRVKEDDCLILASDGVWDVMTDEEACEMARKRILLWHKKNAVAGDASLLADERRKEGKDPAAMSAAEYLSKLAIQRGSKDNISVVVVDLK
`E67Q`: “relative binding score” 97.5%.
`N177V`: “relative binding score” 98.1%.
For `N177D`, “relative binding score” read 90.5%.
Under “relative binding score”, `L94G` is recorded as -4.31%.
For `V136W`, “relative binding score” read 86.2%.
`L112P` — result for “relative binding score”: 6.77%.
`N165C`: “relative binding score” 8.39%.
For `R32Y`, “relative binding score” read 93.5%.
For `V121W`, “relative binding score” read -11%.
For `E130M`, “relative binding score” read 101%.
For `V137S`, “relative binding score” read -5.96%.
`D65N` — result for “relative binding score”: 98.5%.
`S104V` — result for “relative binding score”: 60.4%.
For `K116N`, “relative binding score” read 80.8%.
`P83C`: “relative binding score” 53.4%.
`H16Q` — result for “relative binding score”: 12.7%.
For `V62F`, “relative binding score” read 89.9%.
For `L28M`, “relative binding score” read 100%.
`N114P` — result for “relative binding score”: 4.56%.
Under “relative binding score”, `N77E` is recorded as 105%.
`R111I`: “relative binding score” 38.5%.
For `I162P`, “relative binding score” read 4.98%.
`K116F` — result for “relative binding score”: 31.9%.
For `T119P`, “relative binding score” read -15.2%.
For `R24M`, “relative binding score” read 92%.

Set 2
Target: CCNA2, cyclin fold, Cln2 fusion (human)
Technique: yeast growth competition, sequencing
Medium: yeast
Setting: strong parent motif
Baseline: not given
Direction: higher = stronger binding
Starting sequence: RB1 docking peptide (human); PKPLKKLRFDIEG
`G13P`: “normalised enrichment score” 2.69.
`G13Q` — result for “normalised enrichment score”: 2.18.
Under “normalised enrichment score”, `K6P` is recorded as -0.0846.
`E12T`: “normalised enrichment score” 1.63.
For `K5E`, “normalised enrichment score” read -0.131.
Under “normalised enrichment score”, `E12Q` is recorded as 1.27.
For `K2G`, “normalised enrichment score” read 0.493.
Under “normalised enrichment score”, `K6V` is recorded as 0.426.
For `D10Y`, “normalised enrichment score” read 1.44.
`I11E` — result for “normalised enrichment score”: 1.97.
Under “normalised enrichment score”, `D10M` is recorded as 2.36.
`E12N` — result for “normalised enrichment score”: 1.85.
`K5R` — result for “normalised enrichment score”: 1.61.
`D10R` — result for “normalised enrichment score”: 2.93.
Under “normalised enrichment score”, `E12L` is recorded as 1.74.
`K5A L7A`: “normalised enrichment score” 0.519.
Under “normalised enrichment score”, `P1A` is recorded as 0.936.
`G13R` — result for “normalised enrichment score”: 1.84.

Set 3
Target: ATP-dependent RNA helicase DDX3X, helicase core (DDX3X, Homo sapiens, UniProt O00571, residues 132-607)
Chain of UniProt O00571 (132-607, looked up): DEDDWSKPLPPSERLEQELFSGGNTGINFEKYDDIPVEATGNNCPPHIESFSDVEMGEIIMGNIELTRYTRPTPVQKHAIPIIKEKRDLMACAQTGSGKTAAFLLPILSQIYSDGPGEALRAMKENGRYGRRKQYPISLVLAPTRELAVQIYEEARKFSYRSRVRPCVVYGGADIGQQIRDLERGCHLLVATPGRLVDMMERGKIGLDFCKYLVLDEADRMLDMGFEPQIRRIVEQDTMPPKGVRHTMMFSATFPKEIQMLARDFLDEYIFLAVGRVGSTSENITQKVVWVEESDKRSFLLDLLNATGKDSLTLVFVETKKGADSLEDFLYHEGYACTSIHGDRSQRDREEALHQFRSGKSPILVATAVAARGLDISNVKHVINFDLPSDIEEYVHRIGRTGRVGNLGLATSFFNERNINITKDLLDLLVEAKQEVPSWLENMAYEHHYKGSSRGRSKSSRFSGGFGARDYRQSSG
Technique: RNA Bind-n-Seq
Form: RNA
Medium: in vitro
Tested at: 90 pmol
Setting: 4-mer, random 30-nt RNA, single round
Added: 3 µM DMDA-PatA, 2 mM ADP, 2 mM phosphate
Baseline: input library
Direction: higher = stronger binding
With `GGGG` the 4-mer enrichment was 1.31 fold.
For `UAAU`, the 4-mer enrichment was 0.999 fold.
`GGGC` gave a 4-mer enrichment of 1.07 fold.
`GAUU` gave a 4-mer enrichment of 0.868 fold.
For `UUUC`, the 4-mer enrichment was 0.948 fold.
`ACGC` gave a 4-mer enrichment of 1.01 fold.
`CAAA` gave a 4-mer enrichment of 1.08 fold.
`GGUG` has a 4-mer enrichment of 1.17 fold.
`CAGG` has a 4-mer enrichment of 1.05 fold.
With `CAGC` the 4-mer enrichment was 0.947 fold.
The 4-mer enrichment of `UGAU` is reported as 0.863 fold.
`CUAA` gave a 4-mer enrichment of 0.891 fold.

Set 4
Target: Phosphate system positive regulatory protein PHO4, full length, GST-tagged (PHO4, Saccharomyces cerevisiae, UniProt P07270, residues 1-312)
Technique: competition protein-binding microarray
Form: double-stranded DNA, one strand shown
Medium: in vitro
Tested at: 2 µM
Setting: whole 60-bp probe, lowest competitor level
Added: Cbf1 competitor, 0.05 µM
Direction: higher = stronger binding
Target sequence (chain): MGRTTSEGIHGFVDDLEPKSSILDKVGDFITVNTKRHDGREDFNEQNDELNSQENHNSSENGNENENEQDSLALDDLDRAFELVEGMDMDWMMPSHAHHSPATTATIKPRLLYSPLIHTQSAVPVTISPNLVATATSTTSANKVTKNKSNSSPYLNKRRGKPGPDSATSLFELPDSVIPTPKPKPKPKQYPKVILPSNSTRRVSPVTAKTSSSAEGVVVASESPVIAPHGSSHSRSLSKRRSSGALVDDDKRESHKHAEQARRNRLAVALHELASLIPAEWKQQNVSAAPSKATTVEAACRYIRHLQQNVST
For `CTTGCAGGTTAGGTTTTCGTGCTAAGATGAGCAGATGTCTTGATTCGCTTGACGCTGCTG`, the fluorescence intensity was 4640 a.u.
`TCGTGCGATGTTTTCATCGAATCCTCCAAGCAATGAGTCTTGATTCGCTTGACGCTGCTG` gave a fluorescence intensity of 4730 a.u.
The fluorescence intensity of `CTTCTGTAAATTTGCCAGGTGGGTGGACGCGCCCCGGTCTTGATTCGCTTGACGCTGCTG` is reported as 5480 a.u.
`CGGGGTTAAGTTTTTCACGTGCGCTGCTTGCAGCAGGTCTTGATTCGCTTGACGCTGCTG` gave a fluorescence intensity of 12300 a.u.
`TGCGCAACAACTTGTCCGGTGGGTGTATGTCTAGAAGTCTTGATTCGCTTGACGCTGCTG` has a fluorescence intensity of 3920 a.u.
With `TTCGAAATAGATTCCCAAAAAAAAAAAAAGGGATATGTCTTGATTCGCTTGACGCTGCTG` the fluorescence intensity was 2540 a.u.
`CGCTCTGTTCCTTCTCCCGTGCTGTCGCAAGCGAACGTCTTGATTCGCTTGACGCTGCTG` gave a fluorescence intensity of 5640 a.u.
With `CGGGGTTAAGTTTTTCACGTGGATTGCTTGCAGCAGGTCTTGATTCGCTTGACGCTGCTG` the fluorescence intensity was 12300 a.u.
`CGCTTGACGAACCATCACGTTTGTCAATAACACTTCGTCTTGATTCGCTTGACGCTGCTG` gave a fluorescence intensity of 9650 a.u.
`CTTTCCCGATCTTGGCGGGTGGGTGTAGCACATTTGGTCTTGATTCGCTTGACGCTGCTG` gave a fluorescence intensity of 5180 a.u.
With `TGCGCAACAACTTGACTGGTGGGTGTATGTCTAGAAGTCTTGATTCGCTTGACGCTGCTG` the fluorescence intensity was 4650 a.u.
With `GGGGACTCTAACCGTCACGTTGGTTTGGGTATCAAGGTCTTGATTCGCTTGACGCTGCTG` the fluorescence intensity was 9570 a.u.
`CTAACGAAGGTTTGCACTGTGGGTGACAAGCCAAGTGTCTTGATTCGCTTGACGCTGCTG` has a fluorescence intensity of 4170 a.u.
The fluorescence intensity of `CGTCCTAGTGATTGTCACCTTACTTCCATGAGGAAGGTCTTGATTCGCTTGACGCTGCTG` is reported as 4490 a.u.
For `GTTGACTGTCCCCGTCACGATATCTTAATGAGTACTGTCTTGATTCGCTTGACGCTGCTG`, the fluorescence intensity was 5280 a.u.
With `AAATTACTAAGTTGGCGCGTGGGTGACGCCGTATGAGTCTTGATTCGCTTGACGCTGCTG` the fluorescence intensity was 10500 a.u.

Set 5
Target: Sal-like protein 4, full length isoform B (SALL4, Homo sapiens, UniProt Q9UJQ4-2, residues 1-616)
Technique: universal PBM
Form: double-stranded DNA, one strand shown
Medium: in vitro
Tested at: not given
Setting: 8-mer, flanks averaged, mean of replicates
Direction: higher = stronger binding
Residues (chain): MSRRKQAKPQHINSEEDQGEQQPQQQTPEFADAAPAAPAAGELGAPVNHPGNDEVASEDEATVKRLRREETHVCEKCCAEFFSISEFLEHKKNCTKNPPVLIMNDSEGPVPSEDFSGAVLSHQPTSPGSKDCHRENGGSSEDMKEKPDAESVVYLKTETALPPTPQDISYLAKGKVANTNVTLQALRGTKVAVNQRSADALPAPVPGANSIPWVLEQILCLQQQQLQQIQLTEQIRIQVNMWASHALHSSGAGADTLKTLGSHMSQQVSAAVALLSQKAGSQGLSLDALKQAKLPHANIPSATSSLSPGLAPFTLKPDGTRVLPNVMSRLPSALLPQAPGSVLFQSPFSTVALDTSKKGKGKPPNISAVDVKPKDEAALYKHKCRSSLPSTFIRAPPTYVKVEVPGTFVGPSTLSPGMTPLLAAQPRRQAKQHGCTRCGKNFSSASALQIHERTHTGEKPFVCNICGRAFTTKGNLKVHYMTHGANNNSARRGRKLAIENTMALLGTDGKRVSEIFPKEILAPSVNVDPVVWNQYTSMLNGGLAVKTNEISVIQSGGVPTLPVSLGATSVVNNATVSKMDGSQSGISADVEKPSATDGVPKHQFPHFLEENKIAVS
`CAATCTGC` gave an E-score of -0.0612.
For `CATGTTTC`, the E-score was 0.126.
With `GCTGCTCC` the E-score was -0.363.
The E-score of `CTAAATAC` is reported as 0.218.
For `CGTGTCGA`, the E-score was -0.179.
For `GCAGATGA`, the E-score was -0.128.
`CGAATTTC` gave an E-score of 0.166.
The E-score of `GCATCGAA` is reported as -0.0196.
The E-score of `AGGGGCAT` is reported as 0.0217.
For `ATTGGCTC`, the E-score was 0.118.
`AAACGAGG` gave an E-score of -0.163.
`GTTAGAAA` gave an E-score of 0.117.
With `CCGGGCCC` the E-score was -0.349.
For `TACGAGAA`, the E-score was -0.0157.

Set 6
Target: Histone acetyltransferase KAT6A, winged helix 1, GST fusion (KAT6A, Homo sapiens, UniProt Q92794, residues 1-85)
Technique: protein binding microarray
Form: double-stranded DNA, one strand shown
Medium: in vitro
Tested at: not given
Setting: 8-mer, flanks averaged, mean of 2 arrays, mostly near background
Baseline: not given
Direction: higher = stronger binding
Target sequence (chain): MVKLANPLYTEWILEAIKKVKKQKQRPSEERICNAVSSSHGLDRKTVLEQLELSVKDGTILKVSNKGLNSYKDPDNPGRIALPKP
The E-score of `ATTGTCCG` is reported as 0.168.
The E-score of `GTCGTAAC` is reported as -0.0142.
`ATGCAGTG` has an E-score of -0.203.
`AACCTTCG` has an E-score of -0.0522.
`AGTCTCTC` has an E-score of -0.0941.
The E-score of `AGGGCAAT` is reported as -0.0262.
For `TAGAACGA`, the E-score was -0.102.
`GGTTGTCA` has an E-score of -0.172.
For `GCCCGCCA`, the E-score was 0.208.
For `CACAAGCC`, the E-score was -0.00806.
`CCCTGAGG` has an E-score of -0.12.
`CTTTCTTA` has an E-score of -0.0822.
With `AACTTGCT` the E-score was -0.155.
`AAAACCGG` has an E-score of 0.27.
With `CTCAAGAA` the E-score was -0.172.
`CCCCGCGA` has an E-score of 0.344.
For `GCGTTTGA`, the E-score was 0.06.
The E-score of `AGCGATAT` is reported as 0.0331.
With `CGCTCGCC` the E-score was 0.228.
The E-score of `AGGTTTGA` is reported as -0.159.
With `AACTTCTA` the E-score was -0.223.
`CGAAGAAG` gave an E-score of -0.151.
For `CAGGTCAC`, the E-score was -0.116.
The E-score of `ACGATAGA` is reported as -0.153.
The E-score of `AGTGTCCC` is reported as 0.0585.

For quick reference, copied from above (set 6):
The E-score of `GTCGTAAC` is reported as -0.0142.
`ATGCAGTG` has an E-score of -0.203.
`AACCTTCG` has an E-score of -0.0522.
`AGTCTCTC` has an E-score of -0.0941.
The E-score of `AGGGCAAT` is reported as -0.0262.
For `TAGAACGA`, the E-score was -0.102.
`GGTTGTCA` has an E-score of -0.172.
For `GCCCGCCA`, the E-score was 0.208.
For `CACAAGCC`, the E-score was -0.00806.
`CCCTGAGG` has an E-score of -0.12.
`CTTTCTTA` has an E-score of -0.0822.
With `AACTTGCT` the E-score was -0.155.
`AAAACCGG` has an E-score of 0.27.
With `CTCAAGAA` the E-score was -0.172.
`CCCCGCGA` has an E-score of 0.344.
For `GCGTTTGA`, the E-score was 0.06.
The E-score of `AGCGATAT` is reported as 0.0331.
